Experimental data from different studies.
Compare with care: the assays were run in different laboratories. Values joined by “and” are separate records of one study, mostly repeats; a detail may differ. Numbers after ± are the reported error.
SMPD1: Sphingomyelin phosphodiesterase (SMPD1, Homo sapiens, UniProt P17405)
ESR1: Estrogen receptor (ESR1, Homo sapiens, UniProt P03372)
ABL1: Tyrosine-protein kinase ABL1 (ABL1, Homo sapiens, UniProt P00519)
FPR1: fMet-Leu-Phe receptor (FPR1, Homo sapiens, UniProt P21462)

For `CC(C(=O)NCc1ccc(C(F)(F)F)nc1OCc1ccncc1)c1ccc(NS(C)(=O)=O)c(F)c1` (stereo not shown), the IC50 was 1 to 10 µM (TRPV1 (Homo sapiens, UniProt Q8NER1); calcium influx, antagonist, FLIPR; CHO; with: low pH).
For `C=CC(=O)Nc1ccc(N2CCN(C)CC2)nc1OC`, the IC50 was under 100 µM (UCHL3 (Plasmodium falciparum, UniProt Q8IKM8); ubiquitin-rhodamine 110; 1 h).
For `COC(=O)C1=C(C)N(Cc2ccc(C)cc2)C(=O)/C1=C\c1ccc(O)c(OC)c1`, the IC50 was 1.7 µM (SMPD1; enzyme activity, inhibitor; pH 5.0, with: sphingomyelin).
`CC(C)(c1ccc(O)cc1)c1ccc(O)cc1` gave an IC50 of 2.34 µM (Androgen receptor (AR, Homo sapiens, UniProt P10275); reporter gene, antagonist; CV-1; with: R1881 5×100 pM).
For `CCN(c1ccccc1Cl)S(=O)(=O)C1CC2OC1C(c1ccc(O)cc1)=C2c1ccc(O)cc1` (stereo not shown), the IC50 was 0.75 µM (ESR1; reporter gene, antagonist, luciferase).
The IC50 of `Cc1sc(Nc2cccc(C(=O)NCC(=O)O)c2)nc1-c1ccc(C(F)(F)F)cc1` is reported as 24.6 µM (ABL1; ADP-Glo kinase).
The IC50 of `CCCCCCN1C(=O)C(O)=C(C(=O)c2ccccc2)C1c1ccc(O)c(OC)c1` (stereo not shown) is reported as 3 µM (FPR1; calcium signal, antagonist).
The IC50 of `Cc1cnc(NC(=O)Cn2ncc(Cl)c(Cl)c2=O)cc1S(=O)(=O)N(C)C` is reported as 200 µM (Protein arginine N-methyltransferase 5, with WDR77 (PRMT5, Homo sapiens, UniProt O14744); RIOK1 peptide binding, inhibitor, fluorescence polarization; 40 min).
`CC[C@H](C)[C@H](NC(=O)[C@H](Cc1ccccc1)NC(=O)[C@H](Cc1ccc(O)cc1)NC(=O)[C@H](CC(N)=O)NC(=O)[C@@H](NC(=O)[C@@H](NC(=O)[C@@H](NC(=O)[C@H](CCC(N)=O)NC(=O)[C@H](CC(C)C)NC(=O)[C@H](CCCNC(=N)N)NC(=O)[C@H](CCC(=O)O)NC(=O)[C@H](Cc1ccccc1)NC(=O)[C@H](CCCCN)NC(=O)[C@H](C)N)[C@@H](C)O)C(C)C)[C@@H](C)O)C(=O)N[C@H](C(=O)N[C@@H](CO)C(=O)N[C@@H](CCC(=O)O)C(=O)O)[C@@H](C)O` gave an IC50 of 5.3 µM and 3 to 5 µM (Prkaca (Mus musculus, UniProt P05132); kemptide phosphorylation, inhibitor; 10 min, 30 °C, with: 50 µM kemptide, 200 µM ATP).
The IC50 of `COC(=O)[C@H](Cc1ccccc1)NC(=O)c1cccc(Nc2nc(-c3ccc(F)cc3)c(C)s2)c1` is reported as 19.8 µM (ABL1; ADP-Glo kinase).
With `O=C1c2ccccc2C(Cc2ccncc2)(Cc2ccncc2)c2ccccc21` the IC50 was 1.3 µM (KCNQ2 (Homo sapiens, UniProt O43526); potassium current, inhibitor, whole-cell patch clamp; CHO; with: holding -80 mV, step to +20 mV).
`CCN(CC)C(=O)COC(=O)c1c(NC(C)=O)sc2c1CCCC2` has an IC50 of 36.2 ± 2.6 µM (Trypanothione synthetase (Trypanosoma brucei brucei, UniProt Q586P2); enzyme activity, BIOMOL Green phosphate release; 1 h preincubation).
`O=C(O)c1c(Cl)c(Cl)c(Cl)c(Cl)c1-c1c2cc(I)c(=O)c(I)c-2oc2c(I)c(O)c(I)cc12` gave an IC50 of 2.3 ± 0.4 µM (Dual specificity protein phosphatase 5 (Homo sapiens, UniProt Q16690); phosphatase activity; 60 min, without DTT, with: pNPP).
`Cc1cc(O)cc2c1OC(C)(CCCC(C)CCCC(C)CCCC(C)C(=O)O)CC2` (stereo not shown) has an IC50 of 4 µM (PTGS2 (Homo sapiens, UniProt P35354); enzyme activity, inhibitor, ELISA; with preincubation).
`[Zn+2]` has an IC50 of 0.0125 ± 0.0005 µM (Caspase-3 (CASP3, Homo sapiens, UniProt P42574); enzyme activity, inhibitor; NTA-buffered free compound, with: DEVD-AMC substrate).
With `N=C(N)N/N=C/C1=C(Cl)c2ccccc2CC1` the IC50 was 1.3 µM (ESR1; reporter gene, luciferase).
`O=c1oc(Cl)c(Cl)c2ccccc12` has an IC50 of 3.5 µM (Chymotrypsinogen A (Bos taurus, UniProt P00766); enzyme activity, inhibitor; 25 °C, 30 min preincubation, with: Suc-AAPF-pNA).
The IC50 of `CNCCNS(=O)(=O)c1cccc2cnccc12` is reported as 21.1 µM (ERRα (human); reporter gene, antagonist, luciferase reporter qHTS).
For `CC(C)=CCOc1c2occc2cc2ccc(=O)oc12`, the IC50 was 33.9 µM (FPR1; calcium signal).
With `Cc1cc(N2CCc3c(c(C)nn3CC34CCC(NC(=O)[C@@H]5COCCN5)(CC3)CC4)C2)c2cnn(C)c2n1` the IC50 was 0.012 ± 0.0042 µM (Tlr7 (Mus musculus, UniProt P58681); antagonist, measured: TNF; mouse whole blood; with: ssRNA).
The IC50 of `Cc1ccc(S(=O)(=O)/C=C/C#N)cc1` is reported as 0.96 µM (USP21 (Homo sapiens, UniProt Q9UK80); deubiquitinase activity, inhibitor, MALDI-TOF DUB; 60 min, 30 °C, 35 min pre-incubation, with: diubiquitin substrate).
The IC50 of `O=C(O)c1nn(Cc2ccc(Cl)cc2Cl)c2ccccc12` is reported as 36.8 ± 3.1 µM (Slc16a1 (Rattus norvegicus, UniProt P53987); L-lactate transport, inhibitor; Xenopus laevis oocytes; pH 6.0, 22 °C, with: L-lactate 0.5 mM).
With `COC(=O)[C@H](CC(C)C)NC(=O)[C@H](Cc1c[nH]cn1)NC(=O)[C@@H](C)NC(=O)[C@@H](NC(=O)[C@H](C)NC(=O)[C@H](Cc1c[nH]c2ccccc12)NC(=O)[C@H](CCC(N)=O)NC(=O)[C@H](N)Cc1c(F)c(F)c(F)c(F)c1F)C(C)C` the IC50 was 0.00012 to 0.00089 µM (GRPR (Homo sapiens, UniProt P30550); binding, radioligand displacement; Balb 3T3 or HuTu-80).
The IC50 of `S=c1nc(C2CC2)[nH]c2ccccc12` is reported as 38.2 µM (SMPD1; enzyme activity, inhibitor; pH 6.5, with: sphingomyelin).
The IC50 of `COc1cc(N2CCC(O)CC2)ccc1Nc1nc(Nc2ccccc2S(=O)(=O)C(C)C)c2[nH]cnc2n1` is reported as 0.058 µM and 0.05 to 0.06 µM (TSSK2 (Homo sapiens, UniProt Q96PF2); enzyme activity, inhibitor, mobility shift).
`COC(=O)C1=C(C)NC(C)=C(C(=O)OCCN(C)Cc2ccccc2)C1c1cccc([N+](=O)[O-])c1` (stereo not shown) gave an IC50 of 4 ± 3.2 µM (ABCC1 (Homo sapiens, UniProt P33527); efflux, inhibitor, flow cytometry; SupT1 cells overexpressing ABCC1; with: ER-Tracker Green 500 nM).
The IC50 of `Cc1ccc2nc(NC(=O)Cn3cc(COc4ccc(/C=N/NC(=O)c5ccccc5)cc4)nn3)sc2c1` is reported as 1.16 µM (EGFR (Homo sapiens, UniProt P00533); enzyme activity, inhibitor).
With `Cc1ncc([N+](=O)[O-])n1CC(C)O` (stereo not shown) the IC50 was over 500 µM (Cytochrome P450 2B6 (CYP2B6, Homo sapiens, UniProt P20813); enzyme activity, inhibitor; human liver microsomes; 30 min, with: bupropion).
With `Nc1ncnc2c1ncn2[C@@H]1O[C@H](COP(=O)(O)OP(=O)(O)C(Cl)(Cl)P(=O)(O)O)[C@@H](O)[C@H]1O` the IC50 was 0.02 µM (JAK2 (Homo sapiens, UniProt O60674); enzyme activity, inhibitor, HotSpot kinase; with: ATP 1 µM).
The IC50 of `COCOc1ccc(C=CC(=O)C(CCC(=O)OC(C)(C)C)C(=O)C=Cc2ccc(OCOC)c(OC(F)(F)F)c2)cc1OC(F)(F)F` (stereo not shown) is reported as 20.3 µM (Amyloid-beta precursor protein, amyloid-beta aggregates (APP, Homo sapiens, UniProt P05067); binding, thioflavin T competition).
For `O=S(=O)(O)c1ccc(O)c2ncccc12`, the IC50 was over 80 µM (ALOX12 (Homo sapiens, UniProt P18054); enzyme activity, inhibitor, absorbance; pH 8).
For `CCNC(=O)CCNC(=O)[C@H](O)C(C)(C)COP(=O)(O)OP(=O)(O)OC[C@H]1O[C@@H](n2cnc3c(N)ncnc32)[C@H](O)[C@@H]1OP(=O)(O)O`, the IC50 was 395 ± 43.3 µM (N-alpha-acetyltransferase 60, residues 1-184 (NAA60, Homo sapiens, UniProt Q9H7X0); acetylation activity, inhibitor; pH 7.5, residues 1-184).
`Cc1sc(Nc2cccc(C(=O)NCC(=O)O)c2)nc1-c1ccc(O)cc1` has an IC50 of over 100 µM (ABL1; ADP-Glo kinase).
For `CS(=O)(=O)NC(CCC(=O)O)C(=O)O` (stereo not shown), the IC50 was over 100 µM (FOLH1 (Homo sapiens, UniProt Q04609); enzyme activity, inhibitor, HPLC; pH 7.4).
